{"data": "Results from different studies", "note": "Each numbered part is a random draw from the data of one study; scales do not carry over between parts."}
{"data": "Block 1", "target": "Histone acetyltransferase KAT6A, winged helix 1, GST fusion (KAT6A, Homo sapiens, UniProt Q92794, residues 1-85)", "method": "protein binding microarray", "form": "double-stranded DNA, one strand shown", "sample": "in vitro", "tested at": "not given", "notes": "8-mer, flanks averaged, mean of 2 arrays, mostly near background", "relative to": "not given", "direction": "higher = stronger binding", "Residues (chain)": "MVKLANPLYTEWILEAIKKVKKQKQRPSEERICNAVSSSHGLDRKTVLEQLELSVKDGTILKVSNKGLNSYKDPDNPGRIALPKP"}
{"Oligonucleotide": "AGTTCGGC", "E-score": 0.0843}
{"Oligonucleotide": "ATCAAATG", "E-score": -0.0963}
{"Oligonucleotide": "CTACATAA", "E-score": -0.147}
{"Oligonucleotide": "GGGATTGA", "E-score": -0.0431}
{"Oligonucleotide": "GGCGACTA", "E-score": 0.0969}
{"Oligonucleotide": "AGAGCAAA", "E-score": -0.31}
{"Oligonucleotide": "ACGCTTCT", "E-score": 0.0804}
{"Oligonucleotide": "ATACGGGA", "E-score": 0.306}
{"Oligonucleotide": "AGACCACA", "E-score": -0.113}
{"Oligonucleotide": "ATTCGTCC", "E-score": 0.0158}
{"Oligonucleotide": "ATTTCATG", "E-score": -0.258}
{"Oligonucleotide": "GGAGACCC", "E-score": 0.029}
{"Oligonucleotide": "AATGGTCG", "E-score": 0.00166}
{"Oligonucleotide": "ATACGCTA", "E-score": 0.208}
{"Oligonucleotide": "AAGTCCTA", "E-score": -0.0281}
{"Oligonucleotide": "CGGGAGTC", "E-score": 0.195}
{"Oligonucleotide": "GTTAAAGA", "E-score": 0.0378}
{"Oligonucleotide": "CTAATCCC", "E-score": 0.106}
{"Oligonucleotide": "ACAAGTGA", "E-score": -0.155}
{"Oligonucleotide": "CGCAGTAA", "E-score": 0.0815}
{"Oligonucleotide": "AAAGCTTT", "E-score": 0.206}
{"Oligonucleotide": "TAGGAATA", "E-score": -0.266}
{"data": "Block 2", "target": "Sal-like protein 4, full length isoform A (SALL4, Homo sapiens, UniProt Q9UJQ4, residues 1-1053)", "method": "universal PBM", "form": "double-stranded DNA, one strand shown", "sample": "in vitro", "tested at": "600 nM", "notes": "8-mer, flanks averaged, mean of replicates", "direction": "higher = stronger binding", "chain of UniProt Q9UJQ4 (whole entry, looked up)": "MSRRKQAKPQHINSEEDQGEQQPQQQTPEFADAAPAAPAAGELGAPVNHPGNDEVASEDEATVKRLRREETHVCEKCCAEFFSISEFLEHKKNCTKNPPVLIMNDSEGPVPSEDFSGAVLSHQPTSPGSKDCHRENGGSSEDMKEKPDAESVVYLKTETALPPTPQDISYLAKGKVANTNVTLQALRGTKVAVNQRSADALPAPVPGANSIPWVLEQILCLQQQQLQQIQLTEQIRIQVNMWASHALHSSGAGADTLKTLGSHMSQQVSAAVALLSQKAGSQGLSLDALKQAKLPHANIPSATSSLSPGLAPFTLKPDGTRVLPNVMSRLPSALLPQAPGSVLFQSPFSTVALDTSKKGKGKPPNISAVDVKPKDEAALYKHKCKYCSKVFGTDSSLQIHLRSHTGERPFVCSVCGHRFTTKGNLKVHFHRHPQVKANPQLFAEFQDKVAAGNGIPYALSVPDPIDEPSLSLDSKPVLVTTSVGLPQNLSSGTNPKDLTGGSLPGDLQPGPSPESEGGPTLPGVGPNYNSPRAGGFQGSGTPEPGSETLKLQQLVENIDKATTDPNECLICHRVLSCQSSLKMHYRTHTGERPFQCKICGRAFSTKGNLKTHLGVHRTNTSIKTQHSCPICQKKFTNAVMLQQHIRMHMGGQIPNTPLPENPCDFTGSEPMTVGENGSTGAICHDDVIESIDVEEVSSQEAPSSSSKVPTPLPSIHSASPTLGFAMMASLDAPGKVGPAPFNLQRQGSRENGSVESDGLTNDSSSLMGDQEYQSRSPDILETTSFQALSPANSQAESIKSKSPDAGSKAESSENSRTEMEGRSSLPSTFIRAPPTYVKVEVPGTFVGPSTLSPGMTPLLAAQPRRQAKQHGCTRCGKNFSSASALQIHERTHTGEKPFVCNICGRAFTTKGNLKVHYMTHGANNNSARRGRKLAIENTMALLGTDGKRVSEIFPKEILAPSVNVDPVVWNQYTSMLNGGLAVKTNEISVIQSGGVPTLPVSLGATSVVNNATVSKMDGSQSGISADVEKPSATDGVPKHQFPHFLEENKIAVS"}
{"Oligonucleotide": "ACAACGCT", "E-score": 0.0582}
{"Oligonucleotide": "GACTAAGA", "E-score": -0.00517}
{"Oligonucleotide": "ACCAAAAT", "E-score": 0.278}
{"Oligonucleotide": "CGCGAGGA", "E-score": -0.264}
{"Oligonucleotide": "ACCCGGAA", "E-score": -0.15}
{"Oligonucleotide": "CACATCCG", "E-score": -0.0327}
{"Oligonucleotide": "CCCCGCTA", "E-score": -0.134}
{"Oligonucleotide": "GCCTGCAC", "E-score": -0.283}
{"Oligonucleotide": "CGTGGTTC", "E-score": -0.181}
{"Oligonucleotide": "AAGTAAAG", "E-score": 0.187}
{"Oligonucleotide": "AACCTGCG", "E-score": -0.144}
{"Oligonucleotide": "CTGTCATC", "E-score": -0.0642}
{"Oligonucleotide": "ATTGTTCG", "E-score": 0.271}
{"Oligonucleotide": "GACATTAA", "E-score": 0.244}
{"Oligonucleotide": "ATGTTAGA", "E-score": 0.153}
{"Oligonucleotide": "CACTTATG", "E-score": 0.2}
{"data": "Block 3", "target": "Phosphate system positive regulatory protein PHO4, full length, GST-tagged (PHO4, Saccharomyces cerevisiae, UniProt P07270, residues 1-312)", "method": "competition protein-binding microarray", "form": "double-stranded DNA, one strand shown", "sample": "in vitro", "tested at": "2 µM", "notes": "whole 60-bp probe, lowest competitor level", "with": "Cbf1 competitor, 0.05 µM", "direction": "higher = stronger binding", "all sequences stand within": "… GTCTTGATTCGCTTGACGCTGCTG", "Residues (chain)": "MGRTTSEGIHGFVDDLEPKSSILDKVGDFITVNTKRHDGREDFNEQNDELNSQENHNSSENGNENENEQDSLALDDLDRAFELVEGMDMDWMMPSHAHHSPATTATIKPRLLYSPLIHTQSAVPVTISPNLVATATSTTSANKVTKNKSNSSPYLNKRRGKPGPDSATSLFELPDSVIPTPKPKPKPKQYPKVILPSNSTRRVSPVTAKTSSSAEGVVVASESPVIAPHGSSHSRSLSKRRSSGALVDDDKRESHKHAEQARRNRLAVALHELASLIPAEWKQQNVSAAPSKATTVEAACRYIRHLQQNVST"}
{"Oligonucleotide": "CTTTCCCGATCTTGATCTGTGGGTGTAGCACATTTG", "fluorescence intensity": "4480 a.u."}
{"Oligonucleotide": "TAGGTTTTATCCTGGCACGCTGTCTAGCTTTCAAAC", "fluorescence intensity": "7360 a.u."}
{"Oligonucleotide": "GAAGATAGCGGATCGCACGATGGCTCTAACGTTAGA", "fluorescence intensity": "8690 a.u."}
{"Oligonucleotide": "CTTCTGTAAATTTGTCACATTACTTGACGCGCCCCG", "fluorescence intensity": "3830 a.u."}
{"Oligonucleotide": "GTCTTGTCTCATTGTTGGGTGGGTGTCCCCACTTCA", "fluorescence intensity": "5620 a.u."}
{"Oligonucleotide": "ACCTTAAACACTCACCACGTGCAAACAACAGAATAT", "fluorescence intensity": "17800 a.u."}
{"Oligonucleotide": "CGTCCTAGTGATTGTTTAGTGGGTGCCATGAGGAAG", "fluorescence intensity": "6690 a.u."}
{"Oligonucleotide": "CTTCTGTAAATTTGAGTAGTGGGTGGACGCGCCCCG", "fluorescence intensity": "4530 a.u."}
{"Oligonucleotide": "CGGGGTTAAGTTTGAGCAGTGGGTGGCTTGCAGCAG", "fluorescence intensity": "4430 a.u."}
{"Oligonucleotide": "CAACACCCTCCAGAGACCGTGCCGAAGTTGTTCGAG", "fluorescence intensity": "9710 a.u."}
{"Oligonucleotide": "TGCGCAACAACTTGGCGCGTGGGTGTATGTCTAGAA", "fluorescence intensity": "11600 a.u."}
{"Oligonucleotide": "TTTACCCCGGTGCTATTCGTGACGGTAACTATGGAA", "fluorescence intensity": "4600 a.u."}
{"Oligonucleotide": "AAAGCGGTAATTTGTGGGGTGGGTGCAGATATCTAT", "fluorescence intensity": "4810 a.u."}
{"Oligonucleotide": "AGTCCCAATACCTCTCACGTTTTGGGGGAATAGTTC", "fluorescence intensity": "9120 a.u."}
{"Oligonucleotide": "AAAGCGGTAATTTTTCACGTGGTGTCAAATATCTAT", "fluorescence intensity": "12400 a.u."}
{"Oligonucleotide": "GTCGTCATCCTCCAAGCCGTGATGGTCATCTTCTTC", "fluorescence intensity": "3720 a.u."}
{"Oligonucleotide": "AAAGCGGTAATTTGGCGAGTGGGTGCAGATATCTAT", "fluorescence intensity": "4180 a.u."}
{"Oligonucleotide": "TACTATTATTAGACTTCATTACTGAGTTTATTAGTT", "fluorescence intensity": "3330 a.u."}
{"Oligonucleotide": "CCTCACCCTAGTGAGCATGTGCCCAGGGCTGGGTCA", "fluorescence intensity": "11600 a.u."}
{"Oligonucleotide": "AAGTCAAAACACCGTCACACGAAAACCATAACCTGT", "fluorescence intensity": "5190 a.u."}
{"Oligonucleotide": "TGCGCAACAACTTCTCACGTGTTTTTATGTCTAGAA", "fluorescence intensity": "15800 a.u."}
{"Oligonucleotide": "CTTTCCTTGGTCGCCGGCGTGACGGATTCGCTGGCG", "fluorescence intensity": "5050 a.u."}
{"Oligonucleotide": "CTTTCCCGATCTTGGGACGTGGGTGTAGCACATTTG", "fluorescence intensity": "7470 a.u."}
{"Oligonucleotide": "CGGGGTTAAGTTTGCGGCGTGGGTGGCTTGCAGCAG", "fluorescence intensity": "8670 a.u."}
{"Oligonucleotide": "AAAGCGGTAATTTGTATAGTGGGTGCAGATATCTAT", "fluorescence intensity": "4080 a.u."}
{"data": "Block 4", "target": "RNA binding protein fox-1 homolog 2, RRM domain, GST-SBP tag (RBFOX2, Homo sapiens, UniProt O43251-10, residues 100-194)", "method": "RNA Bind-n-Seq", "form": "RNA", "sample": "in vitro", "tested at": "365 nM", "notes": "natural RNA segment, single round, ends assumed", "relative to": "no-protein control", "direction": "higher = stronger binding", "all sequences stand within": "GGGAGUUCUACAGUCCGACGAUC … UGGAAUUCUCGGGUGCCAA", "Target sequence (chain)": "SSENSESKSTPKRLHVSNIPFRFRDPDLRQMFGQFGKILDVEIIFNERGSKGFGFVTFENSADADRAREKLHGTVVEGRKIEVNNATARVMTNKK"}
{"Oligonucleotide": "ACACAAAAAAAAAGUCUAAUAAGAACUUUGGUACAGGAACUUUUUUGUAAUAUACAUGUAUGAAUUGUUCAUCGAGUUUUUAUAUUAAUUUUAAUUUGCUGCUAAGCAAA", "RBNS enrichment (R)": 0.665}
{"Oligonucleotide": "UUGAUUUUACUUCAAGACAUAGCAAGAGAAACAAAAUUUUGUUUUCAAGACAUUUCCACUGCAGUUUCAAGCUGUAGUGGGCAUAUGCUUCAUUUACUUCCAAAGAGGCA", "RBNS enrichment (R)": 0.236}
{"Oligonucleotide": "ACAAGGCAGGACUUUGGCAAUGCCUUGGCCUCCUGGAAGCAUGUCUGAGCCCUCCUGUUCGCAGGGAUCAUGAGGAACAAGCCCUCCUGAGCUGCUACAGUUCCUGCCUG", "RBNS enrichment (R)": 7.13}
{"Oligonucleotide": "AUGGCGACUGGAAGACCAUUCCAACCUUGAAUCGUUACAGCGAUAGCAUAUCCUAUCCAACCAUACUAACGUGGACACCCACACCUCCCCUCAGAACUUCAAAAGGGCAA", "RBNS enrichment (R)": 0.342}
{"Oligonucleotide": "CUGCAUCUUUAUAUUUUUAAAAUUGUAUUGCUGCUCAAGAAUGGUACCCUCUUGUCAAAAAGGCAUACAUUCAUAAUUGUACAUUCAGCAUUGUAAAUAAUCUUAUGAAA", "RBNS enrichment (R)": 0.89}
{"Oligonucleotide": "AGAUUUCUGAGUAAGAUCUGGCAAGUGAGGGAGCUUUUCUUGAGAGGGGAAGGCUACAUUUCUAUGGGUAUAGAAAUGGGAAUAUUUGCGAGCCUAUCUCAGAUGUACAU", "RBNS enrichment (R)": 0.412}
{"Oligonucleotide": "AAAUGGCUACAGAUAAUGCUCUUUUCUUUUGUGAGGUCUCUUCAUUUAAUGCACUGCCCAGAAAGAGCCAUGUGUAAGAGUUGUUCUCUGUUUGAGGAACUAACUACAUG", "RBNS enrichment (R)": 0.567}
{"Oligonucleotide": "UGCGUUGUGACAAACAUGCAAUGUGCUGUAAAAAUUCAAUACAGUUUAAAUAAAAUCUCUAUAUUAGGCUGCUUUGUUGGGUCGUUUUAUUUUCAUUUCUAAAAAAACUU", "RBNS enrichment (R)": 0.89}
{"Oligonucleotide": "UAGGUUUAGUGAGCAUUUCAUGUCAGGGAGCCUCUGGCCAGUGUCUCUGGGAGGUCACUAAUCUACCCCUGAGGUACCCACUCUUUCUGUCGUAGCUUUCUUCUAGGGCC", "RBNS enrichment (R)": 0.274}
{"Oligonucleotide": "UGCCUCCACCUCCUCAAUGCCGUACCACUAUACCAGUUUGAGUGGUGCUGGGUAUGGAACCCAGGGCUUUGUGCAUGCUAGGCGAGCACUUACCAACUGAGCUACAUCCC", "RBNS enrichment (R)": 3.57}
{"Oligonucleotide": "AGCUGUGCAGGCAUGGUCCCUUAAGGCACAGUGGGAGCUGAGCUGGAAGGGGCCACGUGGAUGGGCAAAGCUUGUCAAAGAUGCCCCCUCCAGGAGAGAGCCAGGAUGCC", "RBNS enrichment (R)": 0.475}
{"Oligonucleotide": "AAAGGUAAUAGUGGCACAAUGUUGCUAACUUUAGACAACUUUUAAUAAAUAUGGUUUCGUAAAGAAAUACAGUGAGUUUCCUUUGUGUGCACGCUGCCUUCCUGUGACUG", "RBNS enrichment (R)": 0.592}
{"note": "Excerpt of the above (block 1):"}
{"Oligonucleotide": "ATACGCTA", "E-score": 0.208}
{"Oligonucleotide": "AGAGCAAA", "E-score": -0.31}
{"Oligonucleotide": "ATTTCATG", "E-score": -0.258}
{"Oligonucleotide": "CGCAGTAA", "E-score": 0.0815}
{"Oligonucleotide": "AATGGTCG", "E-score": 0.00166}
{"Oligonucleotide": "ATCAAATG", "E-score": -0.0963}
{"Oligonucleotide": "AAAGCTTT", "E-score": 0.206}
{"Oligonucleotide": "TAGGAATA", "E-score": -0.266}
{"Oligonucleotide": "CTACATAA", "E-score": -0.147}
{"Oligonucleotide": "AGACCACA", "E-score": -0.113}
{"Oligonucleotide": "CGGGAGTC", "E-score": 0.195}
{"Oligonucleotide": "CTAATCCC", "E-score": 0.106}
